{"data": "Results pooled from the literature", "note": "Numbered parts are unrelated; each lists some results of a single study. Several values in a cell are separate wells, animals, samples, runs or records. ± gives the spread as reported.", "chain of UniProt Q9ULD4 (whole entry, looked up)": "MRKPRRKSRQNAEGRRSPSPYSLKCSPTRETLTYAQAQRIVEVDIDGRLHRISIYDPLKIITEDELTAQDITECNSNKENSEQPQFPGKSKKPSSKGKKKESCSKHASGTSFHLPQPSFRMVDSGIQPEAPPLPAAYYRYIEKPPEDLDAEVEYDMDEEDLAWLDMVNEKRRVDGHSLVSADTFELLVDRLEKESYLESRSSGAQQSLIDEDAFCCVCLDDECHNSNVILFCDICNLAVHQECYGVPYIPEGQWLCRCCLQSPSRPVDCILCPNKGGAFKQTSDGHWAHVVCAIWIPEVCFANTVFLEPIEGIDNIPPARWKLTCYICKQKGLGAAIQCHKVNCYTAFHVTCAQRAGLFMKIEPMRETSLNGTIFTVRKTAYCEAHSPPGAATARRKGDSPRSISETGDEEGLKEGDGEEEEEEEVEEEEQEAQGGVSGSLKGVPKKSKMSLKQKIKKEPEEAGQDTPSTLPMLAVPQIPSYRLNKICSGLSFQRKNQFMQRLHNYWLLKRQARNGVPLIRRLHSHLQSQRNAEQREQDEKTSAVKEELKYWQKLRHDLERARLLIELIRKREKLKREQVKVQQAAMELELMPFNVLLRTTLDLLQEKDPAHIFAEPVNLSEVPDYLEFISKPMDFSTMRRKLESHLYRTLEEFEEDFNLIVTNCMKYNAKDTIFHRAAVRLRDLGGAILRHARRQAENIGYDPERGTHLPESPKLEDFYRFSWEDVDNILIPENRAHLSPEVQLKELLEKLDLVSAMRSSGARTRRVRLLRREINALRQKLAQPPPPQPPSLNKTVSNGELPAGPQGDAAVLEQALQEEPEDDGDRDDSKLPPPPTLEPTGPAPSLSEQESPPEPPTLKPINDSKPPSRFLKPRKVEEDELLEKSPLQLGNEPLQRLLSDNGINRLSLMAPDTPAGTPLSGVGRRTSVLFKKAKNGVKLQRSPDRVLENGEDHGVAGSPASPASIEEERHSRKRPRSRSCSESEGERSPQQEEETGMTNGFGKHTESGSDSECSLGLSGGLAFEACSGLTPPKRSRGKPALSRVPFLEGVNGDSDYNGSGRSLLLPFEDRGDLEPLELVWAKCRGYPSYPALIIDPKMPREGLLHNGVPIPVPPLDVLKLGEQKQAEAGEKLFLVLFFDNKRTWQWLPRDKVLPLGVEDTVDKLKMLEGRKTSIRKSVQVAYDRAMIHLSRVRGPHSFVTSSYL", "chain of UniProt Q9H930 (whole entry, looked up)": "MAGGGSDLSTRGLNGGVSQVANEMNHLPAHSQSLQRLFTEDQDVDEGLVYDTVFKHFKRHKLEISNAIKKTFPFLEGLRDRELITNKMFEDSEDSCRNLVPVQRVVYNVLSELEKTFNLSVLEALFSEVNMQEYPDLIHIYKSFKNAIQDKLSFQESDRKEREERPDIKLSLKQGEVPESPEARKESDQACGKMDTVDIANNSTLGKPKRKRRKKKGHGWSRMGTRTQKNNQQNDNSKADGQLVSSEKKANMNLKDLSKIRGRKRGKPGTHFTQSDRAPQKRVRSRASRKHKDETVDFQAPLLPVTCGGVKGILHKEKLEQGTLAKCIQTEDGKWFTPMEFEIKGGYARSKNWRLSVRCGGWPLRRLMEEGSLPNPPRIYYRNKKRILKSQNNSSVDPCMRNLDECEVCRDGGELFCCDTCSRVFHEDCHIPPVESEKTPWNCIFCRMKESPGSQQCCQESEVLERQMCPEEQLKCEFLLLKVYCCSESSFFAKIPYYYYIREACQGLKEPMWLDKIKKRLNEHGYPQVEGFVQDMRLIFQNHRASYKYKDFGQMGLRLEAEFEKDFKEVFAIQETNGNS", "chain of UniProt O15164 (whole entry, looked up)": "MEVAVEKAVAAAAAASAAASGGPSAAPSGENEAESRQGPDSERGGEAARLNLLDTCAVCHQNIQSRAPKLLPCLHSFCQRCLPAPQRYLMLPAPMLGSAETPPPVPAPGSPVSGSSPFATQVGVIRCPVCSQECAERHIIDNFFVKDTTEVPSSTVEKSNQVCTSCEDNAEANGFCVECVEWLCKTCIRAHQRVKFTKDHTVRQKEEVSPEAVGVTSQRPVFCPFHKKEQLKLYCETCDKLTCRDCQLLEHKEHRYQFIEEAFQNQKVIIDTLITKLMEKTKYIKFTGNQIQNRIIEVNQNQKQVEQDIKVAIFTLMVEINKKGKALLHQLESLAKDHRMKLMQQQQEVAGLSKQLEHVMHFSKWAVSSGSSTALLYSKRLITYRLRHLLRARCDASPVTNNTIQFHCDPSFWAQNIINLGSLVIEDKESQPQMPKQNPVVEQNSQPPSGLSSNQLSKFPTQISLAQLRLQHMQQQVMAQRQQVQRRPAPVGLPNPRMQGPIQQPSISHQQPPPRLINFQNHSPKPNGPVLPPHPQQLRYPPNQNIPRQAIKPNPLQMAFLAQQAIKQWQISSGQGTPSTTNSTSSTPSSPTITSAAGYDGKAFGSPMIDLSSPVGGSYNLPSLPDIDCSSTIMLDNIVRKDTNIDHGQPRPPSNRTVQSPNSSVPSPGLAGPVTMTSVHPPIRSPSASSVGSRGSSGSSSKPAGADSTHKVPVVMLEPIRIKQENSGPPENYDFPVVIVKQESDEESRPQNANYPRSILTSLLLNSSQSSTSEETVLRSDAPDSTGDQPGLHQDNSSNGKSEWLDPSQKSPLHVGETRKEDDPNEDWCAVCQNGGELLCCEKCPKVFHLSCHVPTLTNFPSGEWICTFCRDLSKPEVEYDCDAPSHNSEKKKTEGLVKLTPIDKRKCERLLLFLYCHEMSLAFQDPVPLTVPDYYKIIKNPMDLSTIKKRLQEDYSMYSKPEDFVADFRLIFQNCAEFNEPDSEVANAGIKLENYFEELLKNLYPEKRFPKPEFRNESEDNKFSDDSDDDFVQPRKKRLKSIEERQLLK", "chain of UniProt Q86U86 (whole entry, looked up)": "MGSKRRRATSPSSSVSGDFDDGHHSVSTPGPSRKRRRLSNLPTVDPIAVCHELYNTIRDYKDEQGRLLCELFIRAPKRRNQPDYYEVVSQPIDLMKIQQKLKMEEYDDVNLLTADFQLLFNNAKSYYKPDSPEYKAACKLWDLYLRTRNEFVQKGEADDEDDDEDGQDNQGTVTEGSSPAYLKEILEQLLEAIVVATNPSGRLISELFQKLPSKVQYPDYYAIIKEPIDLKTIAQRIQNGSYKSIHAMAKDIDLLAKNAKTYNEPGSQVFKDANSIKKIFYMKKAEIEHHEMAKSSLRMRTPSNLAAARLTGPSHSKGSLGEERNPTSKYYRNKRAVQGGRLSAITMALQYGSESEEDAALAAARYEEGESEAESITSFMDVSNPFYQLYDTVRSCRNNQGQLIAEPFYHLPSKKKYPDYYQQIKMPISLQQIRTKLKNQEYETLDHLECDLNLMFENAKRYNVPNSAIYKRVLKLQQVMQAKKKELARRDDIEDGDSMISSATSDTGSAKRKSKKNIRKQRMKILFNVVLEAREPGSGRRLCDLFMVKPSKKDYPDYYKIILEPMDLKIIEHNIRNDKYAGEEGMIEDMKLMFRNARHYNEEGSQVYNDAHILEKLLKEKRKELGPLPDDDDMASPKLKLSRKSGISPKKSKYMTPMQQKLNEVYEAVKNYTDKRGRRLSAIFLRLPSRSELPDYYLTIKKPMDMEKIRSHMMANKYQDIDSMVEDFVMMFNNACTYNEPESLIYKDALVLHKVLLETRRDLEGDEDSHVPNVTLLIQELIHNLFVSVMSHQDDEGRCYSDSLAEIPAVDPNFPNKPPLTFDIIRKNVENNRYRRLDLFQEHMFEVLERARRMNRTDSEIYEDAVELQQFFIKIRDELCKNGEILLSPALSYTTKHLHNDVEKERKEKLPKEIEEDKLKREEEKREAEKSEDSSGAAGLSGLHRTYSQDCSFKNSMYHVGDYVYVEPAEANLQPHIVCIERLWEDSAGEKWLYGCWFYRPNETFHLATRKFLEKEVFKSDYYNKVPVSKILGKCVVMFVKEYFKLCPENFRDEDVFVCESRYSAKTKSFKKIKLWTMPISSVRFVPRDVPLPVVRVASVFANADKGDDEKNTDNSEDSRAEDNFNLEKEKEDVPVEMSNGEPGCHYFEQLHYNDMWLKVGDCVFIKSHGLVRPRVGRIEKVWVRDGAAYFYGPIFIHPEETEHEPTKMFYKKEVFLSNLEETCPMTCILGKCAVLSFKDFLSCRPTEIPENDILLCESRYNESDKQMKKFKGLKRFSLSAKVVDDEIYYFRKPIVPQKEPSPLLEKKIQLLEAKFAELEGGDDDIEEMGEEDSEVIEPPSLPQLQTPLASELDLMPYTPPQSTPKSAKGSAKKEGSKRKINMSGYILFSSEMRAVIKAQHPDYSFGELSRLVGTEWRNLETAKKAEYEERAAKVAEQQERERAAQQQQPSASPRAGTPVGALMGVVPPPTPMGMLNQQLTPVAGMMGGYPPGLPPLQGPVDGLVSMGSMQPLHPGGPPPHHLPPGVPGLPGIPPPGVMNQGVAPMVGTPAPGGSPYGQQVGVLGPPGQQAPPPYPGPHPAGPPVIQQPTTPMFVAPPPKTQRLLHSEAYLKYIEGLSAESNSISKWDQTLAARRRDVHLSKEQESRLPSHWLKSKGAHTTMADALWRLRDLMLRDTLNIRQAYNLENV"}
{"data": "Set 1", "target": "Serine/threonine-protein kinase Nek7 (NEK7, Homo sapiens, UniProt Q8TDX7)", "observed": "enzyme activity", "mode": "inhibitor", "concentration": "0.5 µM", "reference": "control", "Target sequence (Q8TDX7 1-302)": "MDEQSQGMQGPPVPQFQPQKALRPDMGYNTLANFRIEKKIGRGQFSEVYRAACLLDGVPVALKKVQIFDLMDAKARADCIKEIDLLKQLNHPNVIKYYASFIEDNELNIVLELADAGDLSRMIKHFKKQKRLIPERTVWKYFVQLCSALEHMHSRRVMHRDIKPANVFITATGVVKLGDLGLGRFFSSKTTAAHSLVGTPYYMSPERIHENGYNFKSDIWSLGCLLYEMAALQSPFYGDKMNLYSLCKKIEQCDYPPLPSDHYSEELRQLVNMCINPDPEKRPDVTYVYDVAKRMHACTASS"}
{"SMILES": "O=c1cc(N2CCOCC2)oc2c1ccc1ccccc12", "remaining activity [%]": 96.6}
{"SMILES": "CC(C)[C@H](CO)Nc1nc(Nc2cccc(Cl)c2)c2ncn(C(C)C)c2n1", "remaining activity [%]": 101}
{"SMILES": "CC(C)c1nn(-c2c(Cl)cccc2Cl)c2nc(Cc3ccc(OCCO)cc3)[nH]c(=O)c12", "remaining activity [%]": 94}
{"SMILES": "CC(=O)O/N=C1/C(c2c(O)[nH]c3cc(Br)ccc23)=Nc2ccccc21", "remaining activity [%]": 91.9}
{"SMILES": "COc1ccc(Cl)cc1NC(=O)Nc1cc(C)nc2ccccc12", "remaining activity [%]": 103}
{"SMILES": "CCOc1cc2ncnc(Nc3cccc(Br)c3)c2cc1OCC", "remaining activity [%]": 98.6}
{"SMILES": "Cn1cc(/C=C2\\C(=O)Nc3ccc(S(N)(=O)=O)cc32)c2ccccc21", "remaining activity [%]": 101}
{"SMILES": "COc1cc2ncc(-c3ccccc3)nc2cc1OC", "remaining activity [%]": 102}
{"SMILES": "C[S+]([O-])c1ccc(-c2nc(-c3ccncc3)c(-c3ccc(F)cc3)[nH]2)cc1 (stereo not shown)", "remaining activity [%]": 98.9}
{"SMILES": "O=C1NC(=O)/C(=C/c2ccc3nccnc3c2)S1", "remaining activity [%]": 105}
{"SMILES": "COc1cc2ncnc(Nc3ccc(OCc4ccccc4)cc3)c2cc1OC", "remaining activity [%]": 101}
{"SMILES": "Cn1cnc2cc3c(Nc4cccc(Br)c4)ncnc3cc21", "remaining activity [%]": 99.4}
{"SMILES": "COc1cc2ncnc(N3CCN(C(=O)Nc4ccc(Oc5ccccc5)cc4)CC3)c2cc1OC", "remaining activity [%]": 105}
{"SMILES": "O=C(Nc1ccc(Cl)cc1)c1ccccc1NCc1ccncc1", "remaining activity [%]": 103}
{"SMILES": "CN(C)CCCn1cc(C2=C(c3c[nH]c4ccccc34)C(=O)NC2=O)c2ccccc21", "remaining activity [%]": 87.1}
{"SMILES": "COc1ccc(-c2cnc3c(-c4ccsc4)cnn3c2)cc1", "remaining activity [%]": 109}
{"SMILES": "Cc1nc(Nc2ncc(C(=O)Nc3c(C)cccc3Cl)s2)cc(N2CCN(CCO)CC2)n1", "remaining activity [%]": 91}
{"SMILES": "Cc1ccc(NC(=O)c2ccc(CN3CCN(C)CC3)cc2)cc1Nc1nccc(-c2cccnc2)n1", "remaining activity [%]": 102}
{"SMILES": "Nc1[nH]nc2nnc(-c3c(-c4ccccc4)nn4ccccc34)cc12", "remaining activity [%]": 95.3}
{"SMILES": "CCC(=O)Nc1ccc2ncnc(Nc3cccc(Br)c3)c2c1", "remaining activity [%]": 92.7}
{"data": "Set 2", "SMILES": "C[S+]([O-])c1ccc(-c2nc(-c3ccncc3)c(-c3ccc(F)cc3)[nH]2)cc1 (stereo not shown)", "observed": "binding", "technique": "thermal shift", "concentration": "10 µM", "reading": "higher = stronger binding"}
{"target": "Protein polybromo-1, BD4 (PBRM1, Homo sapiens, UniProt Q86U86)", "delta Tm [°C]": "0.6 ± 0.14"}
{"target": "SP140L, PHD-bromodomain (Homo sapiens, UniProt Q9H930)", "delta Tm [°C]": "-0.41 ± 0.31"}
{"target": "Bromodomain and PHD finger-containing protein 3 (BRPF3, Homo sapiens, UniProt Q9ULD4)", "delta Tm [°C]": "0.66 ± 0.1"}
{"target": "Transcription intermediary factor 1-alpha, PHD-bromodomain (TRIM24, Homo sapiens, UniProt O15164)", "delta Tm [°C]": "0.92 ± 0.3"}
{"target": "Peregrin, isoform A (BRPF1, Homo sapiens, UniProt P55201)", "delta Tm [°C]": "0.66 ± 0.21"}
{"data": "Set 3", "cell line": "mouse MPNST tumor cells", "technique": "high-content immunofluorescence imaging", "item": "nuclear SOX9", "concentration": "10 µM", "time": "12 h", "setting": "mean of 2 replicates", "reference": "DMSO control", "reading": "higher = more nuclear SOX9"}
{"SMILES": "Cc1ccc(S(=O)(=O)NC2c3ccccc3Oc3ccccc32)cc1", "nuclear SOX9 intensity": "107 % of DMSO"}
{"SMILES": "COc1ccc(OCC2c3cc(OC)c(OC)cc3CCN2C(=O)c2cccc(Cl)c2)cc1 (stereo not shown)", "nuclear SOX9 intensity": "118 % of DMSO"}
{"SMILES": "Oc1ncnc2[nH]ncc12", "nuclear SOX9 intensity": "98.7 % of DMSO and 94.6 % of DMSO"}
{"SMILES": "CNC(=O)c1ccc(C)c(-n2c(C)cc(OCc3ccc(F)cc3F)c(Br)c2=O)c1", "nuclear SOX9 intensity": "104 % of DMSO"}
{"SMILES": "CC(=O)Nc1cccc(Nc2ncnc(N3CCC(OCc4ccc(OC(F)(F)F)cc4)CC3)n2)c1C", "nuclear SOX9 intensity": "113 % of DMSO"}
{"SMILES": "CN1CCN2c3ncccc3Cc3ccccc3C2C1 (stereo not shown)", "nuclear SOX9 intensity": "103 % of DMSO and 110 % of DMSO"}
{"SMILES": "COc1ccc(CCC(=O)Nc2nc3ccc(Cl)cc3s2)cc1OC", "nuclear SOX9 intensity": "104 % of DMSO"}
{"SMILES": "CCOC(=O)NNc1nncc2ccccc12", "nuclear SOX9 intensity": "91.4 % of DMSO"}
{"SMILES": "O=C(NO)c1cccc(C(=O)NCCc2ccccc2)c1", "nuclear SOX9 intensity": "93.7 % of DMSO"}
{"SMILES": "CCOc1cc(N)c(Cl)cc1C(=O)NCC1CN(Cc2ccc(F)cc2)CCO1 (stereo not shown)", "nuclear SOX9 intensity": "84.7 % of DMSO"}
{"SMILES": "CN1CCN(C(=O)c2ccc(-n3nc(-c4ccc(C(=O)O)cc4)cc3-c3cc(C(C)(C)C)cc(C(C)(C)C)c3)cc2)CC1", "nuclear SOX9 intensity": "92.1 % of DMSO"}
{"SMILES": "CC[C@H]1OC(=O)C[C@@H](O)[C@H](C)[C@@H](O[C@@H]2O[C@H](C)[C@@H](O[C@H]3C[C@@](C)(O)[C@@H](O)[C@H](C)O3)[C@H](N(C)C)[C@H]2O)[C@@H](CC=O)C[C@@H](C)C(=O)/C=C/C(C)=C/[C@@H]1CO[C@@H]1O[C@H](C)[C@@H](O)[C@@H](OC)[C@H]1OC", "nuclear SOX9 intensity": "102 % of DMSO"}
{"SMILES": "NN1CCOC1=O", "nuclear SOX9 intensity": "103 % of DMSO"}
{"data": "Set 4", "cell line": "sample J colorectal tumour organoid", "concentration": "1 µM", "reference": "DMSO"}
{"Compound": "Cn1cc(-c2ccc3occ(-c4ccccc4-c4ccccc4)c3n2)cn1", "viability": "134%"}
{"Compound": "Cl.Cl.NC1(c2ccc(-c3nc4ccn5c(=O)[nH]nc5c4cc3-c3ccccc3)cc2)CCC1", "viability": "43.2%"}
{"Compound": "CCC(=NO)C(C)=Cc1ccc(F)c(C)c1", "viability": "127%"}
{"Compound": "CCC(=N\\O)/C(C)=C/c1ccc(F)cc1", "viability": "121%"}
{"Compound": "CN(C)C(=O)Cn1cc(-c2ccc(-c3nnc4ccccn34)cc2)cn1", "viability": "109%"}
{"Compound": "COc1cc(Nc2ccnc3ccc(Br)cc23)cc(OC)c1OC", "viability": "71.1%"}
{"Compound": "CCOc1cn(-c2ccc(F)cc2C)nc1C(=O)Nc1ccc(Oc2ccnc3cc(OC)c(OC)cc23)c(F)c1", "viability": "40.5% and 38.7%"}
{"Compound": "O=C(O)c1ccc(-c2coc3ncc(-c4ccccc4)cc23)cc1Cl", "viability": "106%"}
{"Compound": "CCNC(=O)c1cc2c(N3CCOC[C@H]3C)ccnc2n1C", "viability": "106% and 98.1%"}
{"Compound": "O=C(NCc1ccccc1)c1ccc(S(=O)(=O)NCc2ccccc2)cc1", "viability": "101%"}
{"Compound": "CCN(CC)S(=O)(=O)Nc1cccc(-c2ccc3c(NC(=O)C4CC4)n[nH]c3c2)c1", "viability": "94.4%"}
{"Compound": "Cc1ncc(-c2cc(Cl)ccc2F)cc1-n1c(=O)n(CC(N)=O)c2ccccc21", "viability": "100%"}
{"Compound": "CC(=O)NCC(=O)N1[C@@H]2CC[C@H]1c1ccc(Nc3ncc(C(F)(F)F)c(NC4CCC4)n3)cc12", "viability": "21.1% and 26.5%"}
{"Compound": "CCCCNc1ncc(-c2ccc(CN3CCOCC3)cn2)c(NC2CCC(O)CC2)n1 (stereo not shown)", "viability": "109%"}
{"Compound": "O=C(Nc1cccnn1)N1CC(CC=Cc2cncc(Oc3ccc(C(F)(F)F)cn3)n2)C1", "viability": "109%"}
{"Compound": "CC(C)C(=O)Nc1n[nH]c2cc(-c3cccc(NS(=O)(=O)C4CC4)c3)ccc12", "viability": "122%"}
{"Compound": "CN1CCN(Cc2cc(NC(=O)c3ccc4c(c3)CN(c3ccccc3)CC4)cc(C(F)(F)F)c2)CC1", "viability": "69.9% and 56.9%"}
{"note": "Excerpt of the above (set 1):"}
{"SMILES": "Cn1cc(/C=C2\\C(=O)Nc3ccc(S(N)(=O)=O)cc32)c2ccccc21", "remaining activity [%]": 101}
{"SMILES": "Cc1nc(Nc2ncc(C(=O)Nc3c(C)cccc3Cl)s2)cc(N2CCN(CCO)CC2)n1", "remaining activity [%]": 91}
{"SMILES": "Cn1cnc2cc3c(Nc4cccc(Br)c4)ncnc3cc21", "remaining activity [%]": 99.4}
